Measured values gathered from unrelated publications.
Numbered parts are unrelated; each lists some results of a single study.

Series 1 — technique: RNAcompete; form: RNA; matrix: in vitro; tested at: 20 nM; notes: 7-mer, probes averaged, single round; reference: mean of 7-mers; direction: higher = stronger binding
Target: PABPC1L2, full length, GST fusion (mouse, UniProt A0ABA7IW68)
Oligonucleotide	7-mer Z-score
GACGUAG	-0.228
CACUGUU	-0.383
UGAGGCU	-0.166

Series 2 — technique: universal PBM; form: double-stranded DNA, one strand shown; matrix: in vitro; tested at: not given; direction: higher = stronger binding
Target: Sal-like protein 4, full length isoform B (SALL4, Homo sapiens, UniProt Q9UJQ4-2, residues 1-616)
Notes: 8-mer, flanks averaged, mean of replicates
Oligonucleotide	E-score
CTTCTTTA	0.14
TCGTACGA	0.0242
TAGTCACA	0.0849

Series 3 — technique: protein binding microarray; form: double-stranded DNA, one strand shown; matrix: in vitro; tested at: not given; reference: not given; direction: higher = stronger binding
Target: Histone acetyltransferase KAT6A, winged helix 1, GST fusion (KAT6A, Homo sapiens, UniProt Q92794, residues 1-85)
Notes: 8-mer, flanks averaged, mean of 2 arrays, mostly near background
Target sequence (chain): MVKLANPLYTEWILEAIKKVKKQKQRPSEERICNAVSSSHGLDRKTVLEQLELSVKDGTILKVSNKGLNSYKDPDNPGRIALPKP
Oligonucleotide	E-score
CAGTAGGC	-0.235
ACTGACCT	-0.211
ATACGGAG	0.208
ATCGGTCC	0.137
AATTTCAA	-0.237
GAGAGCGC	0.286

Single results of other studies
Molecule	target	test	test system	conditions	scale	quantity	result
PhoQ, residues 284 288 289 292 302 303 AGGLSV	PhoP, residues 12 14 15 18 19 NQGLL (Escherichia coli, UniProt P23836)	Sort-seq, measured: YFP reporter	E. coli	PhoQ-PhoP variant library, added: 10 µM Mg2+	reference: high Mg2+ state, higher = stronger signaling	fold induction	1.13

Repeated from above (series 3):
Oligonucleotide	E-score
ACTGACCT	-0.211
